Measurements pooled from the literature.
Protocols differ between the studies behind these lines.
Organism: Mycobacterium tuberculosis

Cn1ncc2cc(-c3c(NC(C)(C)C)oc4c3C(=O)c3ccccc3C4=O)ccc21
MIC (resazurin microplate; H37Rv; 7 days + 24 h): > 147 µM

Cc1c(Cc2cccc(OC(F)(F)F)c2)c(=O)n2c([nH]c3ccccc32)c1C#N
MIC (microbial growth, resazurin; H37RV): 64 µg/mL

O=C(NC12CC3CC(CC(O)(C3)C1)C2)c1cc2ccc(Br)cc2[nH]1
MIC (H37Rv): 2.57 µM

CCCCNc1oc2c(c1-c1cc(OC)c(OC)c(OC)c1)C(=O)c1ccccc1C2=O
MIC (resazurin microplate; H37Rv; 7 days + 24 h): 147 µM

Cc1c(Cc2ccc(F)cc2)c(=O)n2c([nH]c3ccccc32)c1C#N
MIC (microbial growth, resazurin; H37RV): 2 µg/mL

Cc1[nH]c(=O)c(CNC(=O)c2ccc(F)nc2)c2c1CCCC2
MIC (microbial growth, resazurin; H37RV): 1.6 µg/mL

O=C(NNc1ccccc1)c1cc2c(F)cc(F)cc2[nH]1
MIC (microplate alamarBlue; H37Rv): > 32 µg/mL

O=C(NC12CC3CC(CC(C3)C1)C2)c1ccc2ccccc2c1
MIC (microbial growth, resazurin; H37RV): ≤ 4 µg/mL

C=CCn1[se]c2ccccc2c1=O
MIC (microbial growth, resazurin; H37RV): 12.5 µg/mL

COc1cc(OC)cc(-c2ccc(C(=O)NCc3c(C)c4c([nH]c3=O)CCCC4)cc2)c1
MIC (microbial growth, resazurin; H37RV): > 25 µg/mL

Cc1ccc(-n2nnc3c2CCC2(C=Cc4cc(Cl)ccc4O2)C3)cc1 (stereo not drawn)
MIC (microbial growth, resazurin; H37RV; 7 days): 25 µg/mL

[N-]=[N+]=Nc1ccc(-n2[se]c3ccccc3c2=O)cc1
MIC (microbial growth, resazurin; H37RV): 25 µg/mL

COc1cc(OC)cc(-c2ccc(C(=O)NCc3c(C)cc(-c4ccccc4)[nH]c3=O)cc2)c1
MIC (microbial growth, resazurin; H37RV): > 20 µg/mL

N#Cc1cc2cccnc2nc1N1CCNCC1
MIC (microplate Alamar Blue; H37Rv): 104 µM

Cc1c(CCc2ccc(Cl)cc2)c(=O)n2c([nH]c3ccccc32)c1C#N
MIC (microbial growth, resazurin; H37RV): > 128 µg/mL

CC(C)c1ccc(-c2nc(CN3CC[Si](C)(C)CC3)co2)cc1
MIC (microbial growth, resazurin; H37RV): 0.5 to 1 µg/mL

Cc1ccc2c(c1)C=CC1(CCc3c(nnn3-c3ccc(Cl)cc3)C1)O2 (stereo not drawn)
MIC (microbial growth, resazurin; H37RV; 7 days): 12.5 µg/mL

CCCCCCCCCCCCCC(=O)NS(=O)(=O)OC[C@H]1O[C@@H](n2cnc3c(N)ncnc32)[C@H](O)[C@@H]1O
MIC (MDR and XDR strains): 3.13 to 25 µM

O=[N+]([O-])c1cn2c(n1)OC[C@@H](OCc1ccc(OC(F)(F)F)cc1)C2
MIC (drug-sensitive clinical strain 2, 7H9 glucose glycerol BSA medium): > 5 µg/mL

CC(C)(C)Nc1oc2c(c1-c1cccc(Br)c1)C(=O)c1ccccc1C2=O
MIC (resazurin microplate; H37Rv; 7 days + 24 h): > 147 µM

O=C(c1cc2c(F)cc(F)cc2[nH]1)N1CCNCC1
MIC (microplate alamarBlue; H37Rv): > 32 µg/mL

Cc1[nH]c(=O)c(CNS(=O)(=O)c2ccc(C(F)(F)F)nc2)c2c1CCCC2
MIC (microbial growth, resazurin; H37RV): 3.5 µg/mL

Cc1ccc2nc(C)c(C(=O)NCc3ccc(S(F)(F)(F)(F)F)cc3)n2c1
MIC (microbial growth, resazurin; H37RV): 0.007 µM

O=C(OCc1ccccc1)c1coc(-c2ccncc2)n1
MIC (H37Rv; 168 h): 1 to 4 µM

Cc1ccc(NCC(=O)N2CCN(c3nc4ncccc4cc3C#N)CC2)cc1C
MIC (microplate Alamar Blue; H37Rv): 125 µM

Cc1c2c([nH]c(=O)c1CNC(=O)c1cccs1)CCCC2
MIC (microbial growth, resazurin; H37RV): > 50 µg/mL

Cc1c(Cc2ccc(C(C)(C)C)cc2)c(=O)n2c([nH]c3ccccc32)c1C#N
MIC (microbial growth, resazurin; H37RV): 0.5 µg/mL

Cc1ccc2c(c1)C=CC1(CCc3c(nnn3Cc3ccccc3)C1)O2 (stereo not drawn)
MIC (MABA; H37Rv; 7 days): > 25 µg/mL

O=c1c2ccccc2[se]n1Cc1ccccc1
MIC (microbial growth, resazurin; H37RV): 25 µg/mL

N#Cc1cc2cccnc2nc1N1CCN(C(=O)CNc2ccccc2I)CC1
MIC (microplate Alamar Blue; H37Rv): 50.2 µM

Cc1[nH]c(=O)c(CNC(=O)c2ccc(F)nc2)c2c1CCC2
MIC (microbial growth, resazurin; H37RV): > 50 µg/mL

Cc1ccc(NC(=O)CN2CCN(c3nc4ncccc4cc3C#N)CC2)cc1C
MIC (microplate Alamar Blue; H37Rv): 62.4 µM

NNC(=O)c1ccncc1
MIC (microbial growth, resazurin; H37RV; 7 days): 0.055 µg/mL

Cc1c(Cc2ccc(F)cc2F)c(=O)n2c([nH]c3ccccc32)c1C#N
MIC (microbial growth, resazurin; H37RV): 0.25 µg/mL

CC(C)(C)n1[se]c2ccccc2c1=O
MIC (microbial growth, resazurin; H37RV): 25 µg/mL

O=C(NCc1ccccc1)c1cc2c(F)cc(F)cc2[nH]1
MIC (microplate alamarBlue; H37Rv): > 32 µg/mL

N#Cc1cc2cccnc2nc1N1CCN(CC(=O)Nc2ccc(Br)cc2)CC1
MIC (microplate Alamar Blue; H37Rv): 55.4 µM

CCCc1c2c([nH]c(=O)c1C)C(=O)c1[nH]c(=O)c(C)c(CCC)c1C2=O
MIC (Microplate Alamar Blue; H37Rv; replicating bacteria): 0.1 µg/mL

Cc1cc(C(F)(F)F)c(CNC(=O)c2ccc(C(F)(F)F)nc2)c(=O)[nH]1
MIC (microbial growth, resazurin; H37RV): > 20 µg/mL

COc1ccc(-n2nnc3c2CCC2(C=Cc4cc(C)ccc4O2)C3)cc1 (stereo not drawn)
MIC (microbial growth, resazurin; H37RV; 7 days): 1.56 µg/mL

O=C1NN=C(N=Cc2ccc(O)cc2O)C1=NNn1c(-c2ccccc2)nc2ccccc2c1=O
MIC (microbial growth, resazurin; H37RV): 26.7 µM

COc1cccc(Nc2ccc([N+](=O)[O-])c3nonc23)c1
MIC (microbial growth; H37RV): 8 µM

N#Cc1cc2cccnc2nc1N1CCN(CC(=O)Nc2ccc(F)cc2)CC1
MIC (microplate Alamar Blue; H37Rv): 64 µM

O=C1C=C(O)C(=O)c2ccccc21
MIC (resazurin microplate; H37Rv; 7 days + 24 h): > 147 µM

N#Cc1cc2cccnc2nc1N1CCN(C(=O)CNc2ccc(F)cc2)CC1
MIC (microplate Alamar Blue; H37Rv): 67.1 µM

Cc1c2c([nH]c(=O)c1CNC(=O)c1ccc(C(F)(F)F)nc1Cl)CCCC2
MIC (microbial growth, resazurin; H37RV): 26.3 µg/mL

N#Cc1cc2cccnc2nc1N1CCN(CC(=O)Nc2ccc(F)c(F)c2)CC1
MIC (microplate Alamar Blue; H37Rv): 61.2 µM

COc1cc(-c2c(NC3CCCCC3)oc3c2C(=O)c2ccccc2C3=O)cc(OC)c1OC
MIC (resazurin microplate; H37Rv; 7 days + 24 h): > 147 µM
